Measurements collected from several papers.
Protocols differ between the studies behind these lines. ± marks the error that the study gave.

SMILES | cell line | test | conditions | CC50
CCN(CC)CCCC(C)Nc1c2cc(Cl)ccc2nc2ccc(Cl)cc12 (centres unmarked) | U2OS-ACE2-GFP |  | 20 (unit not given) | ≥ 4.41 µM
CCCCCCCCCC1O[C@@H]2C[C@H]3[C@@H]4CCC5=CC(=O)C=C[C@]5(C)[C@H]4[C@@H](O)C[C@]3(C)[C@]2(C(=O)CO)O1 (some centres unmarked) | human cells |  |  | > 30 µM
COc1ccccc1CNC(=O)CSc1c[nH]c2ccccc12 | A549 | cell viability |  | 76.2 µM
C#CCCCCOP(=O)(O)Oc1c2c(c(OP(=O)(O)OCCCCC#C)c3c1C1CC3c3cc4c(cc31)C1CC4c3ccccc31)C1CC2c2cc3c(cc21)C1CC3c2ccccc21 | Caco-2 | CellTiter-Glo | 2 days | > 300 µM
Cc1ccc(NC(=O)CN2CCCC3=CC4CC(CN5CCCCC45)C32)c(Cl)c1 (centres unmarked) | Huh-7 | cytotoxicity |  | > 267 µM
C1=[N+]2CCCC[N+]3=Cc4ccc5[n]4[Au-]23[n]2c1ccc2-c1nc2ccccc2nc1-5.F[P-](F)(F)(F)(F)F | colon cancer cell lines |  | NCI60 panel mean | 89 µM
CC(C)C1=C[C@@]23CC[C@@H]4[C@](C)(CCC[C@@]4(C)C(=O)NCC#CCN4CCCNCC4)[C@H]2C[C@@H]1[C@H]1C(=O)OC(=O)[C@H]13 | MDCK | cytotoxicity, MTT | 48 h | 140 µM
Oc1cccc(O)c1-c1c2nc(c(-c3c(O)cccc3O)c3ccc([nH]3)c(-c3c(O)cccc3O)c3nc(c(-c4c(O)cccc4O)c4ccc1[nH]4)C=C3)C=C2 | HeLa S3 | cell proliferation, 3H-thymidine uptake | 2 days + 16 h | 20 µg/mL
O=C(CCNC(=O)c1ccc(OC(F)(F)F)cc1)N[C@@H]1CCCc2ccccc21 | Calu-3 | cell growth or viability | 72 h | 91 µM
O=P(O)(OCCc1ccccc1)Oc1c2c(c(OP(=O)(O)OCCc3ccccc3)c3c1C1CC3c3cc4c(cc31)C1CC4c3ccccc31)C1CC2c2cc3c(cc21)C1CC3c2ccccc21 | Caco-2 | CellTiter-Glo | 2 days | 118 µM
CC(C)C[C@H](NC(=O)[C@H](Cc1c[nH]cn1)NC(=O)[C@H](Cc1c[nH]cn1)NC(=O)[C@H](CC(C)C)NC(=O)[C@H](Cc1ccccc1)NC(=O)CNC(=O)[C@H](CC(C)C)NC(=O)[C@@H](N)Cc1ccccc1)C(=O)N[C@@H](Cc1ccccc1)C(N)=O | Huh-7.5.1 | cell growth or viability, MTT | 48 h | > 500 µg/mL
Cc1ccccc1CN1CCCC2=CC3CC(CN4CCCCC34)C21 (centres unmarked) | Huh-7 | cytotoxicity |  | > 267 µM
CCN(CC)CCCC(C)Nc1c2ccc(Cl)cc2nc2ccc(OC)nc12 (centres unmarked) | U2OS-ACE2-GFP |  | 20 (unit not given) | 8.25 µM
CN(CC(=O)N1CCCC2=CC3CC(CN4CCCCC34)C21)c1ccc(Cl)cc1 (centres unmarked) | Huh-7 | cytotoxicity |  | 192 µM
CC[C@H](C)[C@H](NC(=O)[C@H](CCCCN)NC(=O)[C@H](CC(N)=O)NC(=O)[C@H](CC(C)C)NC(=O)[C@H](Cc1ccccc1)NC(=O)[C@H](CCCCN)NC(=O)[C@H](CCCCNC(=N)N)NC(=O)[C@H](CC(C)C)NC(=O)[C@H](CC(C)C)NC(=O)[C@H](CCCCN)NC(=O)[C@H](CCCCNC(=N)N)NC(=O)[C@H](CC(C)C)NC(=O)CNC(C)=O)C(=O)N[C@@H](CCCCN)C(=O)N[C@@H](CCCCNC(=N)N)C(N)=O | T cells | CCK-8 | 24 h | 12.4 µM
CCN(CC)CCCC(C)Nc1c2cc(OC)ccc2nc2ccc(C(F)(F)F)cc12 (centres unmarked) | U2OS-ACE2-GFP |  | 20 (unit not given) | 7.26 µM
CC(C)(C)SSc1ccccc1CCOP1(=O)OC[C@H]2O[C@@H](n3ccc(=O)[nH]c3=O)[C@](C)(F)[C@@H]2O1 (some centres unmarked) | Huh-7 | MTS | 4 days | 2.9 µM
COc1ccc2nc3ccc(F)cc3c(Nc3cc(CN4CCCC4)c(O)c(CN4CCCC4)c3)c2c1 | U2OS-ACE2-GFP |  | 20 (unit not given) | 3.74 µM
C#CCOP(=O)(O)Oc1c2c(c(OP(=O)(O)OCC#C)c3c1C1CC3c3cc4c(cc31)C1CC4c3ccccc31)C1CC2c2cc3c(cc21)C1CC3c2ccccc21 | Caco-2 | CellTiter-Glo | 2 days | 184 µM
CC[C@H](C)[C@H](NC(=O)[C@H](CCCCN)NC(=O)[C@H](CC(N)=O)NC(=O)[C@H](Cc1ccccc1)NC(=O)[C@H](Cc1ccccc1)NC(=O)[C@H](CCCCN)NC(=O)[C@H](CCCNC(=N)N)NC(=O)[C@H](CC(C)C)NC(=O)[C@H](CCCNC(=N)N)NC(=O)[C@H](CCCCN)NC(=O)[C@H](CCCNC(=N)N)NC(=O)[C@H](CC(C)C)NC(=O)CNC(C)=O)C(=O)N[C@@H](CCCCN)C(=O)N[C@@H](Cc1ccccc1)C(N)=O | T cells | CCK-8 | 24 h | 352 µM
O=C(CCN(CCC(=O)N[C@@H](Cc1c[nH]c2ccccc12)C(=O)O)C(=O)CCN(CCC(=O)N(CCC(=O)N[C@@H](Cc1c[nH]c2ccccc12)C(=O)O)CCC(=O)N[C@@H](Cc1c[nH]c2ccccc12)C(=O)O)C(=O)CCC(CCC(=O)N(CCC(=O)N(CCC(=O)N[C@@H](Cc1c[nH]c2ccccc12)C(=O)O)CCC(=O)N[C@@H](Cc1c[nH]c2ccccc12)C(=O)O)CCC(=O)N(CCC(=O)N[C@@H](Cc1c[nH]c2ccccc12)C(=O)O)CCC(=O)N[C@@H](Cc1c[nH]c2ccccc12)C(=O)O)(CCC(=O)N(CCC(=O)N(CCC(=O)N[C@@H](Cc1c[nH]c2ccccc12)C(=O)O)CCC(=O)N[C@@H](Cc1c[nH]c2ccccc12)C(=O)O)CCC(=O)N(CCC(=O)N[C@@H](Cc1c[nH]c2ccccc12)C(=O)O)CCC(=O)N[C@@H](Cc1c[nH]c2ccccc12)C(=O)O)[N+](=O)[O-])N[C@@H](Cc1c[nH]c2ccccc12)C(=O)O | MT4 |  |  | > 100 µM

SMILES | cell line | test | conditions | CC50
O=C(CN1CCCC2=CC3CC(CN4CCCCC34)C21)Nc1ccc(Cl)cc1 (centres unmarked) | Huh-7 | cytotoxicity |  | > 267 µM
CCC(=O)C[C@@H](O)C[C@@H](C)C[C@H](NC(=O)[C@@H]1C[C@H](C)CN1C(=O)/C=C/[C@@H](C)CC)C(=O)N[C@H](C(=O)NC(C)(C)C(=O)N[C@@H](CC(C)C)C(=O)N[C@@H](CC(C)C)C(=O)NC(C)(C)C(=O)NC(C)(C)C(=O)NCCC(=O)N[C@@H](C)CNC)[C@H](O)C(C)C | C2C12 | cell growth or viability, imaging | 72 h | > 1.5 µM
COc1ccccc1/C=C/[N+](=O)[O-] | healthy human PBMC | Hoechst/PI staining | 72 h, FBS 1% | 10.7 ± 1.11 µM
C=CCCOP(=O)(O)Oc1c2c(c(OP(=O)(O)OCCC=C)c3c1C1CC3c3cc4c(cc31)C1CC4c3ccccc31)C1CC2c2cc3c(cc21)C1CC3c2ccccc21 | Caco-2 | CellTiter-Glo | 2 days | 185 µM
CC[C@H](C)[C@H](NC(=O)[C@H](CCCN)NC(=O)[C@H](CC(N)=O)NC(=O)[C@H](CC(C)C)NC(=O)[C@H](Cc1ccccc1)NC(=O)[C@H](CCCN)NC(=O)[C@H](CCCCNC(=N)N)NC(=O)[C@H](CC(C)C)NC(=O)[C@H](CC(C)C)NC(=O)[C@H](CCCN)NC(=O)[C@H](CCCCNC(=N)N)NC(=O)[C@H](CC(C)C)NC(=O)CNC(C)=O)C(=O)N[C@@H](CCCN)C(=O)N[C@@H](CCCCNC(=N)N)C(N)=O | T cells | CCK-8 | 24 h | 7.24 µM
Oc1c(CN2CCCC2)cc(Nc2c3cc(Cl)ccc3nc3ccc(Cl)cc23)cc1CN1CCCC1 | U2OS-ACE2-GFP |  | 20 (unit not given) | 5.46 µM
C1=C2CCCN(Cc3ccccc3)C2C2CC1C1CCCCN1C2 (centres unmarked) | Huh-7 | cytotoxicity |  | > 267 µM
CC(C)COP(=O)(O)Oc1c2c(c(OP(=O)(O)OCC(C)C)c3c1C1CC3c3cc4c(cc31)C1CC4c3ccccc31)C1CC2c2cc3c(cc21)C1CC3c2ccccc21 | Caco-2 | CellTiter-Glo | 2 days | 128 µM
O=C(CNc1ccc(OC(F)(F)F)cc1)N1CCCC2=CC3CC(CN4CCCCC34)C21 (centres unmarked) | Huh-7 | cytotoxicity |  | 118 µM
Oc1ccc(Nc2c3cc(Cl)ccc3nc3ccc(Cl)cc23)cc1CN1CCCC1 | U2OS-ACE2-GFP |  | 20 (unit not given) | 4.26 µM
CC[C@H](C)[C@@H]1NC(=O)[C@H](CCCCN)NC(=O)[C@H](CCCCN)NC(=O)[C@H](Cc2ccc(O)cc2)NC(=O)[C@H](CC(C)C)NC(=O)[C@@H]2CCCN2C(=O)[C@H](C)NC(=O)CNC(=O)CNC(=O)[C@H](CO)NC(=O)CNC(=O)CNC(=O)[C@H](CO)NC(=O)[C@H](CCC(=O)O)NC(=O)[C@H](CC(C)C)NC(=O)[C@H](CC(C)C)NC(=O)[C@H](CCCCN)NC(=O)[C@H](CCCCN)NC(=O)[C@H]([C@@H](C)CC)NC(=O)[C@H]([C@@H](C)CC)NC(=O)[C@H](CCCCN)NC(=O)[C@H](CCCCN)NC(=O)[C@H](Cc2ccc(O)cc2)NC(=O)[C@H](CC(C)C)NC(=O)[C@@H]2CCCN2C(=O)CNC(=O)CNC(=O)CSC[C@@H](C(N)=O)NC(=O)[C@H](CC(C)C)NC(=O)[C@H](CCCCN)NC(=O)[C@H](CCCCN)NC(=O)[C@H]([C@@H](C)CC)NC1=O | K562 | resazurin | 24 h | 2.8 ± 0.2 µM
COc1ccc2nc3cc(Cl)ccc3c(Nc3ccc(O)c(CN4CCCC4)c3)c2n1 | U2OS-ACE2-GFP |  | 20 (unit not given) | 3.62 µM
CC=CCCCCOP(=O)(O)Oc1c2c(c(OP(=O)(O)OCCCCC=CC)c3c1C1CC3c3cc4c(cc31)C1CC4c3ccccc31)C1CC2c2cc3c(cc21)C1CC3c2ccccc21 | Caco-2 | CellTiter-Glo | 2 days | 240 µM
C1CCCCCC2(CCCCC1)OOCCCOO2 | PLC-PRF-5 | cell growth or viability, MTS | 72 h | 59 µM
C=CCCCOP(=O)(O)Oc1c2c(c(OP(=O)(O)OCCCC=C)c3c1C1CC3c3cc4c(cc31)C1CC4c3ccccc31)C1CC2c2cc3c(cc21)C1CC3c2ccccc21 | Caco-2 | CellTiter-Glo | 2 days | 194 µM
Clc1cc(Cl)cc(CCCN2CCCC3=CC4CC(CN5CCCCC45)C32)c1 (centres unmarked) | Huh-7 | cytotoxicity |  | 58.1 µM
O=c1nc(NO)ccn1[C@@H]1O[C@H](CO)[C@@H](O)[C@H]1O | CEM | MTS | 4 days | 3.5 µM
O=S(=O)(c1cc(Cl)cc(Cl)c1)N1CCCC2=CC3CC(CN4CCCCC34)C21 (centres unmarked) | Huh-7 | cytotoxicity |  | > 267 µM
CC(C)OC(=O)C(C)NP(=O)(OCC1OC(n2ccc(=O)[nH]c2=O)C(F)(Cl)C1O)Oc1ccccc1 (centres unmarked) | Huh-7 | MTS | 4 days | > 100 µM
C=C1C(=O)OC2C1CCC(Cn1cc(-c3cc(C(F)(F)F)cc(C(F)(F)F)c3)nn1)=C1CCC(C)(O)C12 (centres unmarked) | MV4-11 | cell viability, alamarBlue | 24 h | 1.2 ± 0.5 µM

A few entries again:
SMILES | cell line | test | conditions | CC50
COc1ccccc1/C=C/[N+](=O)[O-] | healthy human PBMC | Hoechst/PI staining | 72 h, FBS 1% | 10.7 ± 1.11 µM
C=CCCOP(=O)(O)Oc1c2c(c(OP(=O)(O)OCCC=C)c3c1C1CC3c3cc4c(cc31)C1CC4c3ccccc31)C1CC2c2cc3c(cc21)C1CC3c2ccccc21 | Caco-2 | CellTiter-Glo | 2 days | 185 µM
CC[C@H](C)[C@H](NC(=O)[C@H](CCCN)NC(=O)[C@H](CC(N)=O)NC(=O)[C@H](CC(C)C)NC(=O)[C@H](Cc1ccccc1)NC(=O)[C@H](CCCN)NC(=O)[C@H](CCCCNC(=N)N)NC(=O)[C@H](CC(C)C)NC(=O)[C@H](CC(C)C)NC(=O)[C@H](CCCN)NC(=O)[C@H](CCCCNC(=N)N)NC(=O)[C@H](CC(C)C)NC(=O)CNC(C)=O)C(=O)N[C@@H](CCCN)C(=O)N[C@@H](CCCCNC(=N)N)C(N)=O | T cells | CCK-8 | 24 h | 7.24 µM
Oc1c(CN2CCCC2)cc(Nc2c3cc(Cl)ccc3nc3ccc(Cl)cc23)cc1CN1CCCC1 | U2OS-ACE2-GFP |  | 20 (unit not given) | 5.46 µM
C1=C2CCCN(Cc3ccccc3)C2C2CC1C1CCCCN1C2 (centres unmarked) | Huh-7 | cytotoxicity |  | > 267 µM
